Published values gathered from unrelated publications.
T1: PDHA1/PDHB 30-390 E232A on β (Homo sapiens); chain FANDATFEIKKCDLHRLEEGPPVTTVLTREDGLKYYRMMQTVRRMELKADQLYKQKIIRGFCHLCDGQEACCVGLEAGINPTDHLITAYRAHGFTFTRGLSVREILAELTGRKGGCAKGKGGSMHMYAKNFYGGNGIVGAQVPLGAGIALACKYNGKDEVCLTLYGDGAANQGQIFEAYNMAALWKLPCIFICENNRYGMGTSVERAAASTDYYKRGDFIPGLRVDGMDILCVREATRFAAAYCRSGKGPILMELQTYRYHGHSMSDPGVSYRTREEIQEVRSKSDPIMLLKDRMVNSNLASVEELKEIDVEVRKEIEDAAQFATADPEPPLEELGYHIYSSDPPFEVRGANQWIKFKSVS; chain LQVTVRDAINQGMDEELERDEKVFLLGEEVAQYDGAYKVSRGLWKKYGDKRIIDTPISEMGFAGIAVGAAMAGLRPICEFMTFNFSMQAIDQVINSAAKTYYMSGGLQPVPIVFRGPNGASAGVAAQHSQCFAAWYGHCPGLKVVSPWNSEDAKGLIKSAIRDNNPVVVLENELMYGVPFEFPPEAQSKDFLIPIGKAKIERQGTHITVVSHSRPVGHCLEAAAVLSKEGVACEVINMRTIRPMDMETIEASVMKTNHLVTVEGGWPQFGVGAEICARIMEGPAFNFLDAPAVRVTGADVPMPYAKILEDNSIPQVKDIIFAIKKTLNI
B1: GAL80 (Saccharomyces cerevisiae, UniProt P04387); sequence looked up; chain MDYNKRSSVSTVPNAAPIRVGFVGLNAAKGWAIKTHYPAILQLSSQFQITALYSPKIETSIATIQRLKLSNATAFPTLESFASSSTIDMIVIAIQVASHYEVVMPLLEFSKNNPNLKYLFVEWALACSLDQAESIYKAAAERGVQTIISLQGRKSPYILRAKELISQGYIGDINSIEIAGNGGWYGYERPVKSPKYIYEIGNGVDLVTTTFGHTIDILQYMTSSYFSRINAMVFNNIPEQELIDERGNRLGQRVPKTVPDHLLFQGTLLNGNVPVSCSFKGGKPTKKFTKNLVIDIHGTKGDLKLEGDAGFAEISNLVLYYSGTRANDFPLANGQQAPLDPGYDAGKEIMEVYHLRNYNAIVGNIHRLYQSISDFHFNTKKIPELPSQFVMQGFDFEGFPTLMDALILHRLIESVYKSNMMGSTLNVSNISHYSL
B2: PEX15 1-327 (Saccharomyces cerevisiae, UniProt Q08215); sequence looked up; chain MAASEIMNNLPMHSLDSSLRDLLNDDLFIESDESTKSVNDQRSEVFQECVNLFIKRDIKDCLEKMSEVGFIDITVFKSNPMILDLFVSACDIMPSFTKLGLTLQSEILNIFTLDTPQCIETRKIILGDLSKLLVINKFFRCCIKVIQFNLTDHTEQEEKTLELESIMSDFIFVYITKMRTTIDVVGLQELIEIFIFQVKVKLHHKKPSPNMYWALCKTLPKLSPTLKGLYLSKDVSIEDAILNSIDNKIQKDKAKSKGKQRGVKQKIHHFHEPMLHNSSEEQVKVEDAFNQRTSTDSRLQSTGTAPRKKNNDITVLAGSFWAVLKHH
B3: ARRB1 1-382 K232Q/R236Q/K250Q (Homo sapiens, UniProt P49407); chain MGDKGTRVFKKASPNGKLTVYLGKRDFVDHIDLVDPVDGVVLVDPEYLKERRVYVTLTVAFRYGREDLDVLGLTFRKDLFVANVQSFPPAPEDKKPLTRLQERLIKKLGEHAYPFTFEIPPNLPSSVTLQPGPEDTGKALGVDYEVKAFVAENLEEKIHKRNSVRLVIRKVQYAPERPGPQPTAETTRQFLMSDKPLHLEASLDKEIYYHGEPISVNVHVTNNTNKTVKKIQISVQQYADIVLFNTAQYQVPVAMEEADDTVAPSSTFSKVYTLTPFLANNREKRGLALDGKLKHEDTNLASSTLLREGANREILGIIVSYKVKVKLVVSRGGLLGDLASSDVAVELPFTLMHPKPKEEPPHREVPENETPVDTNLIELDTN
B4: PHKB (Homo sapiens, UniProt Q93100); pS12/pS27/pS701; sequence looked up; chain MAGAAGLTAEVSWKVLERRARTKRSGSVYEPLKSINLPRPDNETLWDKLDHYYRIVKSTLLLYQSPTTGLFPTKTCGGDQKAKIQDSLYCAAGAWALALAYRRIDDDKGRTHELEHSAIKCMRGILYCYMRQADKVQQFKQDPRPTTCLHSVFNVHTGDELLSYEEYGHLQINAVSLYLLYLVEMISSGLQIIYNTDEVSFIQNLVFCVERVYRVPDFGVWERGSKYNNGSTELHSSSVGLAKAALEAINGFNLFGNQGCSWSVIFVDLDAHNRNRQTLCSLLPRESRSHNTDAALLPCISYPAFALDDEVLFSQTLDKVVRKLKGKYGFKRFLRDGYRTSLEDPNRCYYKPAEIKLFDGIECEFPIFFLYMMIDGVFRGNPKQVQEYQDLLTPVLHHTTEGYPVVPKYYYVPADFVEYEKNNPGSQKRFPSNCGRDGKLFLWGQALYIIAKLLADELISPKDIDPVQRYVPLKDQRNVSMRFSNQGPLENDLVVHVALIAESQRLQVFLNTYGIQTQTPQQVEPIQIWPQQELVKAYLQLGINEKLGLSGRPDRPIGCLGTSKIYRILGKTVVCYPIIFDLSDFYMSQDVFLLIDDIKNALQFIKQYWKMHGRPLFLVLIREDNIRGSRFNPILDMLAALKKGIIGGVKVHVDRLQTLISGAVVEQLDFLRISDTEELPEFKSFEELEPPKHSKVKRQSSTPSAPELGQQPDVNISEWKDKPTHEILQKLNDCSCLASQAILLGILLKREGPNFITKEGTVSDHIERVYRRAGSQKLWLAVRYGAAFTQKFSSSIAPHITTFLVHGKQVTLGAFGHEEEVISNPLSPRVIQNIIYYKCNTHDEREAVIQQELVIHIGWIISNNPELFSGMLKIRIGWIIHAMEYELQIRGGDKPALDLYQLSPSEVKQLLLDILQPQQNGRCWLNRRQIDGSLNRTPTGFYDRVWQILERTPNGIIVAGKHLPQQPTLSDMTMYEMNFSLLVEDTLGNIDQPQYRQIVVELLMVVSIVLERNPELEFQDKVDLDRLVKEAFNEFQKDQSRLKEIEKQDDMTSFYNTPPLGKRGTCSYLTKAVMNLLLEGEVKPNNDDPCLIS
B5: DLAT 214-416 (Homo sapiens, UniProt P10515); sequence looked up; chain SYPPHMQVLLPALSPTMTMGTVQRWEKKVGEKLSEGDLLAEIETDKATIGFEVQEEGYLAKILVPEGTRDVPLGTPLCIIVEKEADISAFADYRPTEVTDLKPQVPPPTPPPVAAVPPTPQPLAPTPSAPCPATPAGPKGRVFVSPLAKKLAVEKGIDLTQVKGTGPDGRITKKDIDSFVPSKVAPAPAAVVPPTGPGMAPVP
B6: mel-26 (Caenorhabditis elegans, UniProt Q94420); sequence looked up; chain MEPRIDGGVFIGGIGNSGNEMCSNGVPALGVSSQTEIKVEKVQHTWTVKNFSHCYQEYLENFVYLQRGDEQLTWSIKIYPKGNGENNKDFVFLCLNRVINNNVKAGKIGFKSQFKLRTAENKDIEMRIHPNPSHSDYVSYIKRDVLFPQIMPRDMIIVNVEIDVAVETITTTNEPIQFEPTNSEQQLIEDYQRLFSQELLCDFAINVNGKIIRAHKAVLAARSPVFNAMLTHQDTDEAKSSMMYINDMDYDVIYEMVYYIYCGRCNKDITDMATALLIAADKYRLEELKSHCEKYLVENINIENACSLLIIGDLYSAPKLRKRAVTYILARPKNVTGTPGWEDILKGHPNLITDIFSQIDRQSSTGATSSVSNLPGVPMDIPGITGNIVPPPSGL
B7: GET2 1-106 (Saccharomyces cerevisiae, UniProt P40056); Alexa594 label; sequence looked up; chain MSELTEAEKRRLLRERRQKKFSNGGASSRLNKITGQASSHLNAESPLDAPSAAKTTPPASVHSATPDIKEDSNVAPQLDLLKQLAAMQGQGTGKSTPQDSSTPDLL
B8: UGT1A9 (Homo sapiens, UniProt O60656); chain GKLLVVPMDGSHWFTMRSVVEKLILRGHEVVVVMPEVSWQLGRSLNCTVKTYSTSYTLEDLDREFKAFAHAQWKAQVRSIYSLLMGSYNDIFDLFFSNCRSLFKDKKLVEYLKESSFDAVFLDPFDNCGLIVAKYFSLPSVVFARGILCHYLEEGAQCPAPLSYVPRILLGFSDAMTFKERVRNHIMHLEEHLLCHRFFKNALEIASEILQTPVTEYDLYSHTSIWLLRTDFVLDYPKPVMPNMIFIGGINCHQGKPLPMEFEAYINASGEHGIVVFSLGSMVSEIPEKKAMAIADALGKIPQTVLWRYTGTRPSNLANNTILVKWLPQNDLLGHPMTRAFITHAGSHGVYESICNGVPMVMMPLFGDQMDNAKRMETKGAGVTLNVLEMTSEDLENALKAVINDKSYKENIMRLSSLHKDRPVEPLDLAVFWVEFVMRHKGAPHLRPAAHDLTWYQYHSLDVIGFLLAVVLTVAFITFKCCAYGYRKCLGKKGRVKKAHKSKTH
B9: Rrp47/Rrp6 (Saccharomyces cerevisiae); chain 1 MEDIEKIKPYVRSFSKALDELKPEIEKLTSKSLDEQLLLLSDERAKLELINRYAYVLSSLMFANMKVLGVKDMSPILGELKRVKSYMDKAKQYDNRITKSNEKSQAEQEKAKNIISNVLDGNKNQFEPSISRSNFQGKHTKFENDELAESTTTKIIDSTDHIRKASSKKSKRLDKVGKKKGGKK; chain 2 MTSENPDVLLSRVINVVRAASSLASQDVDFYKNLDRGFSKDLKSKADKLADMANEIILSIDEHHESFELKEEDISDLWNNFGNIMDNLLEMSDHSLDKLNCAINSKSRGSDLQYLGEFSGKNFSPTKRVEKPQLKFKSPIDNSESHPFIPLLKEKPNALKPLSESLRLVDDDENNPSHYPHPYEYEIDHQEYSPEILQIREEIPSKSWDDSVPIWVDTSTELESMLEDLKNTKEIAVDLEHHDYRSYYGIVCLMQISTRERDYLVDTLKLRENLHILNEVFTNPSIVKVFHGAFMDIIWLQRDLGLYVVGLFDTYHASKAIGLPRHSLAYLLENFANFKTSKKYQLADWRIRPLSKPMTAYARADTHFLLNIYDQLRNKLIESNKLAGVLYESRNVAKRRFEYSKYRPLTPSSEVYSPIEKESPWKILMYQYNIPPEREVLVRELYQWRDLIARRDDESPRFVMPNQLLAALVAYTPTDVIGVVSLTNGVTEHVRQNAKLLANLIRDALRNIKNTNEEATPIPSSETKADGILLETISVPQIRDVMERFSVLCNSNISKSRAKPVTNSSILLGKILPREEHDIAYSKDGLPNKVKTEDIRIRAQNFKSALANLEDIIFEIEKPLVVPVKLEEIKTVDPASAPNHSPEIDNLDDLVVLKKKNIQKKQPAKEKGVTEKDAVDYSKIPNILSNKPGQNNRQQKKRRFDPSSSDSNGPRAAKKRRPAAKGKNLSFKR
B10: Osm 24-206 (Mus musculus, UniProt P53347); chain ANRGCSNSSSQLLSQLQNQANLTGNTESLLEPYIRLQNLNTPDLRAACTQHSVAFPSEDTLRQLSKPHFLSTVYTTLDRVLYQLDALRQKFLKTPAFPKLDSARHNILGIRNNVFCMARLLNHSLEIPEPTQTDSGASRSTTTPDVFNTKIGSCGFLWGYHRFMGSVGRVFREWDDGSTRSRR
B11: SNW1 59-129 (Homo sapiens, UniProt Q13573); sequence looked up; chain GDGGAFPEIHVAQYPLDMGRKKKMSNALAIQVDSEGKIKYDAIARQGQSKDKVIYSKYTDLVPKEVMNADD
Chain of UniProt P13045 (whole entry, looked up): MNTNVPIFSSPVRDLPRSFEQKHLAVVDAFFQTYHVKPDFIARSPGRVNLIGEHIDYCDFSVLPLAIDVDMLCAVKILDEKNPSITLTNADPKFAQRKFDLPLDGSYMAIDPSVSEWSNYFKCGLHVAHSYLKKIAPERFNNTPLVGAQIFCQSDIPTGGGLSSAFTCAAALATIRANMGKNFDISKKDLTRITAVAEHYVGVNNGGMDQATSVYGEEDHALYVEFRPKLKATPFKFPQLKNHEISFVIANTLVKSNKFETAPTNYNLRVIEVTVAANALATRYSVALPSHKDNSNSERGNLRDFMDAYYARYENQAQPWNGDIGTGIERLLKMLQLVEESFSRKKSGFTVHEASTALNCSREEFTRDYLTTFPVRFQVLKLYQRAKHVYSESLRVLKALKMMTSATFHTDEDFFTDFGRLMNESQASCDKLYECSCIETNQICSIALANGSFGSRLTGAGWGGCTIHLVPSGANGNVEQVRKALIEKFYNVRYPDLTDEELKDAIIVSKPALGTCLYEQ
Chain of UniProt Q9UBS4 (whole entry, looked up): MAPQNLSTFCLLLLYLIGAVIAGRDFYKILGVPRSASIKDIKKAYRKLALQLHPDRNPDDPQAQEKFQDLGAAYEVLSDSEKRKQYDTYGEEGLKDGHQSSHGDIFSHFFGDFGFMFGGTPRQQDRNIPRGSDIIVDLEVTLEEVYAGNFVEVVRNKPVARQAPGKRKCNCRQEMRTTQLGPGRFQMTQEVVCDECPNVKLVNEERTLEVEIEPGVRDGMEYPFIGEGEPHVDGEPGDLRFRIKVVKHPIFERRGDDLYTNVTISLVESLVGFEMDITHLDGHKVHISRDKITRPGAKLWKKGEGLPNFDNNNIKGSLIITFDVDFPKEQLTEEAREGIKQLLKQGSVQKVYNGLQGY
Chain of UniProt Q9Y3C6 (whole entry, looked up): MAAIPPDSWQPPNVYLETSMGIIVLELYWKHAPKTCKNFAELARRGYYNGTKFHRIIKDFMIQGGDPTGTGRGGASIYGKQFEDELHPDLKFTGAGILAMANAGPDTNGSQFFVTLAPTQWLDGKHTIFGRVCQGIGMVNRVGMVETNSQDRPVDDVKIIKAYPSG
Chain of UniProt Q00560 (whole entry, looked up): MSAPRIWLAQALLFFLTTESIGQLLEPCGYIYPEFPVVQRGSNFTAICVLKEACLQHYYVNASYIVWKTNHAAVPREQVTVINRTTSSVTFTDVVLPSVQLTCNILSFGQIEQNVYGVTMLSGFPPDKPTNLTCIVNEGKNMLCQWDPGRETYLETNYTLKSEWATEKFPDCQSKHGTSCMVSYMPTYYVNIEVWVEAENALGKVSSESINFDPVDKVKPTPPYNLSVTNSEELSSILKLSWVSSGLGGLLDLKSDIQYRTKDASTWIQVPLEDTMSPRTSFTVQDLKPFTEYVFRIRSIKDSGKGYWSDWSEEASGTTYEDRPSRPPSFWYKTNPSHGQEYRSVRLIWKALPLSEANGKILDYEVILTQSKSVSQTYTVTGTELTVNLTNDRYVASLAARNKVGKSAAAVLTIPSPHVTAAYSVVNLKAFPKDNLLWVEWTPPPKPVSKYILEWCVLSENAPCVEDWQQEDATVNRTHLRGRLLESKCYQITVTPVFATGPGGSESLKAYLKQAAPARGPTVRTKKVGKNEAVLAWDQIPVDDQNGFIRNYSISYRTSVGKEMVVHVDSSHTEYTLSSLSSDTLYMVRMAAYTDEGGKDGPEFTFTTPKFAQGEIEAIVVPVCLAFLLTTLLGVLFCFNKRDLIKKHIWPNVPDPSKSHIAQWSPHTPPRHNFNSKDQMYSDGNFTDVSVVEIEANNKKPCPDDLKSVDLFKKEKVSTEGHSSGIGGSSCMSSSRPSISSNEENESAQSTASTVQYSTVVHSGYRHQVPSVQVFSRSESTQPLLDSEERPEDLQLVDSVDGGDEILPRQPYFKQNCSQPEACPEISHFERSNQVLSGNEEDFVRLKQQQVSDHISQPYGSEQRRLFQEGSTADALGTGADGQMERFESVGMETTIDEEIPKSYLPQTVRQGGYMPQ
Chain of UniProt O43791 (whole entry, looked up): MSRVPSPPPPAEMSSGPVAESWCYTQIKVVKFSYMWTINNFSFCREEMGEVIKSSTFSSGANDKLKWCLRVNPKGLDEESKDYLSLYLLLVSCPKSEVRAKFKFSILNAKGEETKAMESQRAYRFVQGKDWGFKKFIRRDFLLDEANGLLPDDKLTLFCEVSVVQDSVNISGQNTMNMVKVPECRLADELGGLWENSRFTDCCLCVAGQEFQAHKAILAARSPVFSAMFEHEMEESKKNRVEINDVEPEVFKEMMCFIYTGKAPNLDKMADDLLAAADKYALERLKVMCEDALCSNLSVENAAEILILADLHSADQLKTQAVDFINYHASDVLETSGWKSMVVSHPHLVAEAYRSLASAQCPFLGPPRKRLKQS
Chain of UniProt P46020 (whole entry, looked up): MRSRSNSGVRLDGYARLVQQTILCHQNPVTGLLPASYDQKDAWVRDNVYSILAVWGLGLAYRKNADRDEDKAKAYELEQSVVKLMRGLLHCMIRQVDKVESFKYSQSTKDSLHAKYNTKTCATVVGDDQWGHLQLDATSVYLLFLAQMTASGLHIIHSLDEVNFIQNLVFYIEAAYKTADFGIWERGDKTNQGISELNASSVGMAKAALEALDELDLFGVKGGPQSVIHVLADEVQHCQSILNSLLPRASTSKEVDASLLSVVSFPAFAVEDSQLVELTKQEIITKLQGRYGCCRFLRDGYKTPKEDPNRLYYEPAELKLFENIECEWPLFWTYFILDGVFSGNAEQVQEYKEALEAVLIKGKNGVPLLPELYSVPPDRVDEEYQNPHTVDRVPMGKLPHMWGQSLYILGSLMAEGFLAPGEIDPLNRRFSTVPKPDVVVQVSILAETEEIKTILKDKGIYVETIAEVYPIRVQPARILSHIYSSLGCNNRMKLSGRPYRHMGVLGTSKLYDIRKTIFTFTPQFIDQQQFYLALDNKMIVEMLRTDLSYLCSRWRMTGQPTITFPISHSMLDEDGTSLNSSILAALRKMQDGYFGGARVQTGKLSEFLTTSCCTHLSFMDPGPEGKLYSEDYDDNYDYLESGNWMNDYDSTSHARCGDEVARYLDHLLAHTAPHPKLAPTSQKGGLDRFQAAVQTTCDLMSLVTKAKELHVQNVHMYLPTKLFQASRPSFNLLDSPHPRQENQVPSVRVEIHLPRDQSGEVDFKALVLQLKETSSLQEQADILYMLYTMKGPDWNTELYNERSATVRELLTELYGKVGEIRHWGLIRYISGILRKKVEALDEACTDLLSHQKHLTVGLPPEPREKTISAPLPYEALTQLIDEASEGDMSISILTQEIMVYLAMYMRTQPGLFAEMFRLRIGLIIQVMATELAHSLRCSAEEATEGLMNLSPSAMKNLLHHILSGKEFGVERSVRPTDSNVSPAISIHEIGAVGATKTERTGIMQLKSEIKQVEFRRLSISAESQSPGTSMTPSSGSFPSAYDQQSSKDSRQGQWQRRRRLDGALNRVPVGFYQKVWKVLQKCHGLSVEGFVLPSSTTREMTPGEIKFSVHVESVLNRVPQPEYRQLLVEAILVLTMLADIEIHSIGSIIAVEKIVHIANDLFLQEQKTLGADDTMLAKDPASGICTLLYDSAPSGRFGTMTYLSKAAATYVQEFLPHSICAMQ
Chain of UniProt Q06904 (whole entry, looked up): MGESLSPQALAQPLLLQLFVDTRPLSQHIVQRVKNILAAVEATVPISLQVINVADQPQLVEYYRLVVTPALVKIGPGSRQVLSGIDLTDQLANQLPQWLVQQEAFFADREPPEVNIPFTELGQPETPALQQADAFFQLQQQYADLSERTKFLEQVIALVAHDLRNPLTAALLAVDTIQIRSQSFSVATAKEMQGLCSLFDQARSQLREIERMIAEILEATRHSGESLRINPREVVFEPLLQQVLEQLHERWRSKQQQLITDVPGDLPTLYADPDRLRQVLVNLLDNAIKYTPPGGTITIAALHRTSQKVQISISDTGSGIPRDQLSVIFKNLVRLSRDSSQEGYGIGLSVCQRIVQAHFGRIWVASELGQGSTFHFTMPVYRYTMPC
Chain of UniProt P11021 (whole entry, looked up): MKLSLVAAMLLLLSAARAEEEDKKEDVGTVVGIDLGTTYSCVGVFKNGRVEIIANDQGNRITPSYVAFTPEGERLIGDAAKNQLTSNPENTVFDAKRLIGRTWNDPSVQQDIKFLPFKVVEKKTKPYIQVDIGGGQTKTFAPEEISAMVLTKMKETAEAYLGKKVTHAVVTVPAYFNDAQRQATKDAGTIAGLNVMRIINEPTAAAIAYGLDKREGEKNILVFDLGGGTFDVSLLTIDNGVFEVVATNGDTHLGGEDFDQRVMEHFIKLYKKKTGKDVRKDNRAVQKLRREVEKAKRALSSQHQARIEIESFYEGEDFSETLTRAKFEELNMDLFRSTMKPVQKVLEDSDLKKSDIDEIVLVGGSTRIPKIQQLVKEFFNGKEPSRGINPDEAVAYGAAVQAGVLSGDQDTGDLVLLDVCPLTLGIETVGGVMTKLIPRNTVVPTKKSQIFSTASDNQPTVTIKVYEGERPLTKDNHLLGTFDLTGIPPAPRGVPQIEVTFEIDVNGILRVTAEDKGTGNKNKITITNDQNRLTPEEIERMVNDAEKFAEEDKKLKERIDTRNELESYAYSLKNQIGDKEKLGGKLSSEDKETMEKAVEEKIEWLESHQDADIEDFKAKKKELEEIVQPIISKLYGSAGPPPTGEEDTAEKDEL
Chain of UniProt P30989 (whole entry, looked up): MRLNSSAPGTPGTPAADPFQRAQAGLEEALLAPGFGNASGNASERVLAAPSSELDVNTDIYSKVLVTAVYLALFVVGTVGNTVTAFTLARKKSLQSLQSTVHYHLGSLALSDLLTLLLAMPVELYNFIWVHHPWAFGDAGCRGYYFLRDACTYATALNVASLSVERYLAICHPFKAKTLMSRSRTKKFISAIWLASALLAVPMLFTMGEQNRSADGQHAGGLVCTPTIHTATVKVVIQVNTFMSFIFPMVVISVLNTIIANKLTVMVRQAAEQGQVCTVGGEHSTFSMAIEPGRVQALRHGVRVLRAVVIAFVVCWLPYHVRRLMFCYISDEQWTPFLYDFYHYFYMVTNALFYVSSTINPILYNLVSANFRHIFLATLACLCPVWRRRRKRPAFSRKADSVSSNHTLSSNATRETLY

Under binding, `B1 (GAL80)` is recorded as “binds” (GAL3, Cy3 label (Saccharomyces cerevisiae, UniProt P13045); sedimentation velocity, AUC; 5 µM, Cy3-labeled).
For `B2 (PEX15 1-327)`, binding read “binds” (PEX1/PEX6 complex E798Q/E832Q (Saccharomyces cerevisiae); co-IP).
Under binding, `BNI5 (Saccharomyces cerevisiae, UniProt P53890)` is recorded as “binds” (Cdc11/Cdc12/Cdc3/Cdc10 hetero-octamer (Saccharomyces cerevisiae); negative-stain EM; KCl 45 mM, together with: septins 50 nM).
`B3 (ARRB1 1-382 K232Q/R236Q/K250Q)` — result for binding: “binds” (NTSR1, GRK5-phosphorylated (Homo sapiens, UniProt P30989); SEC).
`B4 (PHKB)` — result for binding: “binds” (PHKA1, phosphorylated incl. pS1018 (Homo sapiens, UniProt P46020); cryo-EM).
For `B5 (DLAT 214-416)`, binding read “binds” (T1, PDHA1/PDHB 30-390 E232A on β (Homo sapiens); SPR).
Under binding, `B6 (mel-26)` is recorded as “binds” (mei-1 S92D, phosphorylated by MBK-2 (Caenorhabditis elegans, UniProt P34808); far-Western; 4 °C, denatured).
`B7 (GET2 1-106)`: binding “binds” (GET3 D57N, Alexa488 label (Saccharomyces cerevisiae, UniProt Q12154); FRET; together with: nucleotides).
With `B8 (UGT1A9)` the Vmax/Km was 2400 µL/min/mg (O=C(/C=C/c1ccccc1O)c1ccccc1; steady-state kinetics; pH 7.4, 37 °C).
`B9 (Rrp47/Rrp6)` — result for binding: “binds” (SKI6/RRP45/RRP42/MTR3/RRP46/RRP43/CSL4/RRP4/RRP40 Exo9 core (Saccharomyces cerevisiae); SEC).
Under binding, `GHMEAVTPLTKAADISLDNLVEGKRKRRSNVSSPATPTASSSSSTTPTRKITESGW (TP53BP1 residues 1606-1656 (Homo sapiens, UniProt Q12888))` is recorded as “binds” (SPOP MATH domain 28-164 (Homo sapiens, UniProt O43791); NMR titration; 4 °C).
Under binding, `B10 (Osm 24-206)` is recorded as “binds” (Il6st ectodomain 23-617 (Mus musculus, UniProt Q00560); cryo-EM).
`sasA (Synechococcus elongatus, UniProt Q06904)` — result for binding: “binds” (kaiC (Synechococcus elongatus, UniProt Q79PF4); fluorescence polarisation; in vitro clock reaction, together with: KaiC).
`DNAJB11 (Homo sapiens, UniProt Q9UBS4)` — result for binding: “binds” (HSP90B1 K467A (Homo sapiens, UniProt P14625); pull-down).
For `SMARCD1 (Homo sapiens, UniProt Q96GM5-1)`, binding read “binds” (SMARCA4 (Homo sapiens, UniProt P51532-1); cross-linking).
`B11 (SNW1 59-129)`: binding “binds” (PPIL1 (Homo sapiens, UniProt Q9Y3C6); SPR).
For `HSPA5 (Homo sapiens, UniProt P11021)`, binding read “binds” (HSP90B1 E103A (Homo sapiens, UniProt P14625); pull-down).

Some of these lines once more:
For `B2 (PEX15 1-327)`, binding read “binds” (PEX1/PEX6 complex E798Q/E832Q (Saccharomyces cerevisiae); co-IP).
